Measurements gathered from unrelated publications.
Several values in a cell are separate wells, animals, samples, runs or records. Numbers after ± are the reported error.
ACHE: Acetylcholinesterase (ACHE, Homo sapiens, UniProt P22303)
PFF0160c E182D: Dihydroorotate dehydrogenase (quinone), mitochondrial (PFF0160c, Plasmodium falciparum, UniProt Q08210, E182D)

SMILES | target | test | test system | setting | scale | measurement | value
C[C@H]1CN(c2n[nH]c3nc(N[C@H]4CC[C@H](NS(=O)(=O)CCC(F)(F)F)CC4)ncc23)CCO1 | SWI/SNF-related matrix-associated actin-dependent regulator of chromatin subfamily E member 1 (Homo sapiens, UniProt Q969G3) | Kinobeads competition, item: SMARCE1 |  | 0.16 µM, unit not given | relative to: vehicle | remaining binding | 1.33
COc1c(O)cc2c3c1-c1cc4c(cc1CC3N(C)CC2)OCO4 (stereo not drawn) | Alpha-1A adrenergic receptor (ADRA1A, Homo sapiens, UniProt P35348) | calcium flux, antagonist, FLIPR | CHO-K1 | with: norepinephrine |  | apparent Kb | 255 nM
COc1ccc(Nc2nn3c(-c4ccccc4)ccnc3c2C(=O)Nc2ccccc2)cc1 | α-amylase isoenzymes | native PAGE densitometry, item: abnormal band |  | 1 mg/mL |  | band share | 68.5%
Cc1cn([C@H]2C[C@H](O)[C@@H](COP(=O)(O)OP(=O)(O)OP(=O)(O)O)O2)c(=O)[nH]c1=O | DNA polymerase I, Klenow fragment (polA, Escherichia coli, UniProt P00582, C907S/D424A/L744C/Y766F) | nucleotide incorporation, substrate, single-turnover rapid quench |  | with: radiolabelled primer-template DNA |  | maximum incorporation rate | 50 ± 3 s⁻¹
COC(=O)[C@@]1(O)C[C@H]2O[C@]1(C)n1c3ccccc3c3c4c(c5c6ccccc6n2c5c31)C(=O)NC4 | Mitogen-activated protein kinase 3 (MAPK3, Homo sapiens, UniProt P27361) | ADP-Glo |  | 2.04 µM, with: MBP substrate |  | kinase activity | 99.7% and 106% and 110%
Oc1ccc2ccc3cccc4ccc1c2c34 | Aryl hydrocarbon receptor (Danio rerio, UniProt Q9YGV3) | reporter gene, agonist, luciferase reporter | ZF-4 | 123.5 µM | relative to: vehicle control | fold change | 1.64
COc1cc(N)c(Cl)cc1C(=O)NC1CN2CCC1CC2 (stereo not drawn) | Opsin-5 (OPN5, Homo sapiens, UniProt Q6U736) | β-arrestin recruitment, TANGO luminescence, item: OPN5 |  | concentration not given | relative to: basal luminescence | log2 fold change | 0.052
O=C(c1ccc(Cl)cc1)N1CCN2C(=O)N(OC(=O)N3CCOc4ccccc43)C(=O)C2C1 (stereo not drawn) | Peptidyl-prolyl cis-trans isomerase A (PPIA, Homo sapiens, UniProt P62937) | MS-based ABPP | SW-620 conditioned medium | 10 µM, 1 h, 37 °C | relative to: compound over DMSO, lower = more inhibition | mean protein ratio | 1.21
CCNC(=O)NCCCOc1cccc(CN2CCCCC2)c1 | ACHE |  | biochemical | concentration not given |  | activity class | inactive
Cn1nc(C(=O)N2CCC(c3[nH]ncc3Cc3ccccc3)CC2)c2ccccc2c1=O | PFF0160c E182D | enzyme activity, DCIP colorimetric |  |  | relative to: E182D mutant over wild type | IC50 ratio | 2.7
Nc1nc2c(ncn2[C@@H]2O[C@@H]3COP(=O)(O)O[C@H]4[C@@H](O)[C@H](n5cnc6c(=O)[nH]c(N)nc65)O[C@@H]4COP(=O)(O)O[C@H]3[C@H]2O)c(=O)[nH]1 | Cell cycle histidine kinase CckA, G318A; cytoplasmic region (Caulobacter vibrioides, UniProt Q9X688, G318A) | binding, ITC |  | with: ADP 5 mM |  | ΔH | 0.845 ± 0.0466 kcal/mol
COc1ccc(N2C(=O)N(c3c(C)cccc3Cl)Cc3cnc(Nc4ccc(C5CCN(C)CC5)cc4OC)nc32)nc1 | Ribosomal protein S6 kinase alpha-5 (RPS6KA5, Homo sapiens, UniProt O75582) | kinase activity, inhibitor |  | 0.5 µM, MSK1 |  | inhibition | 10%
Cc1noc(-c2cccs2)c1C(=O)NC(C)c1cccc2ccccc12 (stereo not drawn) | PFF0160c E182D | enzyme activity, DCIP colorimetric |  |  | relative to: E182D mutant over wild type | IC50 ratio | 4.6
Clc1cc2c(cc1Cl)Oc1cc(Cl)c(Cl)cc1O2 | Uncharacterized protein (Takifugu rubripes, UniProt Q4JHL3) | reporter gene, agonist, dual-luciferase | COS-7 | 24 h |  | EC80 | 10.5 ± 9.23 nM
O=C1c2ccccc2C(=O)C1c1ccccc1 | Bile acid receptor (NR1H4, Homo sapiens, UniProt Q96RI1) |  | cells | concentration not given |  | activity | inactive
NP(N)(=O)NC(=O)c1ccc(F)cc1 | ACHE |  | biochemical | concentration not given |  | activity class | inactive
C=C(CN(C(=O)c1c(C(F)F)nn(C)c1F)C1CC1)c1ccc(Cl)cc1Cl | SDHD/SDHC/SDHB (Sus scrofa, UniProt A5GZW8+D0VWV4+Q007T0) | enzyme activity, inhibitor, DCIP reduction | pig | 0.4 µM, with: DCIP 80 µM |  | reaction velocity | 0.00987 µM/s and 0.00863 µM/s and 0.00862 µM/s
O=C(Nc1cccnn1)N1CCC(=Cc2cccc(Oc3ccc(C(F)(F)F)cn3)c2)CC1 | GABA transporter, rat | binding |  | 50 µM, with: [3H]GABA |  | inhibition | 65%
Nc1ncc(-c2nc(N3CCOCC3)nc(N3CCOCC3)n2)c(C(F)F)n1 | Mast/stem cell growth factor receptor Kit (KIT, Homo sapiens, UniProt P10721) | KINOMEscan |  | 10 µM |  | remaining binding | 20%
Clc1ccc(-c2cc(Cl)ccc2Cl)cc1 | Aryl hydrocarbon receptor (AHR, Homo sapiens, UniProt P35869) | reporter gene, antagonist | AZ-AHR cells | 24 h, with: TCDD 4.5 nM |  | IC25 | 16000 nM
CC(C)[C@@H](O)CC[C@@H](C)[C@H]1CC[C@H]2[C@@H]3CC=C4C[C@@H](O)CC[C@]4(C)[C@H]3CC[C@]12C | Glutamate NMDA receptor; GRIN1/GRIN2B (GRIN1/GRIN2B, Homo sapiens, UniProt Q05586+Q13224, Q556A) | positive allosteric modulator, two-electrode voltage clamp | Xenopus oocytes expressing GluN1-Q556A | 10 µM, 0.02% cremophor, with: 100 µM glutamate and glycine | relative to: without compound | current response | 120 ± 1.2%
[2H]c1c([2H])c([C@]2([2H])CCCN2C(=O)C(C)(C)Oc2ccc3cn[nH]c3c2)c([2H])c([2H])c1C([2H])([2H])[2H] | Non-receptor tyrosine-protein kinase TYK2, JH1 domain (TYK2, Homo sapiens, UniProt P29597) | KINOMEscan |  | 1 µM | relative to: DMSO control | remaining binding | 97%
CN1CCN(c2cc(-c3ccncc3)c(-c3ccc4ccccc4c3)nn2)CC1 | MRGPRD (Homo sapiens, UniProt Q8TDS7) | antagonist, FLIPR |  | 10 µM |  | inhibition | 49.2%
CCc1nonc1NC(=O)c1oc2c(C)c(C)ccc2c1C | PFF0160c E182D | enzyme activity, DCIP colorimetric |  |  | relative to: E182D mutant over wild type | IC50 ratio | 2.4
COc1ncccc1-c1cnn2ccc(N3CCN(C(=O)OC(C)C)CC3)nc12 | Serine/threonine-protein kinase N2 (PKN2, Homo sapiens, UniProt Q16513) | KINOMEscan |  | 1 µM |  | remaining binding | 82%
Cc1nc2c(=O)sc3ccccc3c2n1Cc1ccccc1 | PFF0160c E182D | enzyme activity, DCIP colorimetric |  |  | relative to: E182D mutant over wild type | IC50 ratio | 0.1
O[C@@H]1CCCC[C@H]1N1CCC(c2ccccc2)CC1 (racemic) | Vesicular acetylcholine transporter (Rattus norvegicus, UniProt Q62666) |  |  |  | relative to: Ki σ2 (rat liver) over Ki VAChT | selectivity ratio | 8.6
